Experimental data pooled from the literature.
Several values in a cell are separate wells, animals, samples, runs or records. ± marks the error that the study gave.
Cell line: A549

[Cl-].[Cl-].[Ru+2].c1ccc2nc(-c3ccc4ccccc4n3)ccc2c1.c1cnc2c(c1)ccc1cccnc12.c1cnc2c(c1)ccc1cccnc12 — IC50 (resazurin; 72 h, together with: indigo light 450 nm, 29.1 J/cm2): 6 µM
COc1ccc([C@@H]2CC(=O)c3c(O)cc(O[C@@H]4O[C@H](CO[C@@H]5O[C@@H](C)[C@H](O)[C@@H](O)[C@H]5O)[C@@H](O[C@H]5O[C@H](CO)[C@@H](O)[C@H](O)[C@H]5O)[C@H](O)[C@H]4O)cc3O2)cc1O — IC50 (cell growth or viability, trypan blue; 72 h): 88.8 µg/mL
CCn1cc[n+](CC)c1 — IC50 (cell growth or viability, crystal violet; 72 h): > 100 µM
CC1=C(Cn2c3ccc(Br)c(=O)c-3nc3ccccc32)CCC(C)(C)C1 — IC50 (cell growth or viability, CCK-8; 72 h): 0.73 µM
C=CC(=O)Nc1cc(Nc2nccc(-c3c(-c4ccc5ccccc5c4)n(C)c4ccccc34)n2)c(OC)cc1N(C)CCN(C)C — IC50 (cell growth or viability, MTT; 72 h): 0.652 µM
COc1c(O)c(Br)c2oc3c(Br)c(O)c(CC=C(C)C)c(O)c3c(=O)c2c1CC=C(C)C — IC50 (cell growth or viability; 48 h): 14.3 µM
Cc1cc(C=O)cc(C)c1Oc1cc(Nc2ccc(C#N)cc2)nc2ccncc12 — IC50 (48 h): 45.9 ± 5.5 µM
CCN(CC)CCN1C(=O)c2ccc3c4cccc5c(N6CCNCC6)ccc(c6ccc(c2c36)C1=O)c54 — IC50 (cell growth or viability, SRB; 72 h): 3.1 µM
CC(=O)[O-].O.O.O.O.[Co+2].[O-]c1ccc(Br)cc1C=NCCN1CCOCC1 — IC50 (cell viability, MTT; 72 h): 22.7 µg/mL
CC(=O)OC[C@H]1O[C@@H](N2C(=O)/C(=C/c3ccc4c(c3)OCCO4)SC2=S)[C@H](OC(C)=O)[C@@H](OC(C)=O)[C@@H]1OC(C)=O — IC50 (cell growth or viability, MTT; 48 h): 17.1 µM
C[N+]1(C)CC[NH2+][Pt-2]1([OH])([Cl])([Cl])[O]C(=O)CCC(=O)OCCO — IC50 (cell growth or viability, MTT; 96 h): 319 µM
CCCCCCC(=O)NCCNC(=O)[C@]1(C)[C@@H]2CC[C@]3(C)[C@H](C(=O)C=C4[C@@H]5[C@@H](C)[C@H](C)CC[C@]5(C)CC[C@]43C)[C@@]2(C)CC[C@H]1OC(C)=O — IC50 (cell growth or viability, MTT; 48 h): 16.4 µM
CC(C)=CCc1cc(-c2coc3cc(O)c(CC=C(C)C)c(O)c3c2=O)ccc1O — IC50 (cell growth or viability, MTT): 129 µM
CC(C)(C)N=[C](NCc1cccc(N)c1)[AuH][Cl] — IC50 (cell growth or viability): > 100 µM
[Cl-].[Cl-].[Ru+2].c1ccc(-c2ccccn2)nc1.c1ccc(-c2ccccn2)nc1.c1ccc(-c2ccnc3c2ccc2c(-c4ccccc4)ccnc23)cc1 — IC50 (cell growth or viability; 72 h, dark): 66 µM and 66.4 µM
CN(C)c1cc[n+](CCCCC[n+]2ccc(N(C)C)cc2)cc1 — IC50 (cell growth or viability, MTT; 24 h): 1260 µM
COCCOCCSc1nc(N)c2c(F)c(C#N)c(F)c(F)c2n1 — IC50 (cell growth or viability, MTT; 96 h): 6.5 µM
CC(C)=CCCC(C)(O)C1CCC2(C)C1C(O)CC1C3(C)CCC(OC4OC(COC(=O)CCCCCN5C(=O)C=CC5=O)C(O)C(OC(=O)CCCCCN5C(=O)C=CC5=O)C4O)C(C)(C)C3CCC12C (centres unmarked) — IC50 (cell growth or viability, MTT): 54.8 µM
COC(=O)[C@@H](NC(=O)[C@@H](NC(=O)OC(C)(C)C)C(C)C)C(C)C — IC50 (cell growth or viability, SRB): 1 µM
COc1cc(C(=O)c2[nH]c(N)nc2-c2cccs2)cc(OC)c1OC — IC50 (cell growth or viability, SRB; 24 h): 0.048 µM
O=Cc1c2cc(Cl)ccc2n2c1c(-c1ccccc1)c(SC(F)(F)F)c1ccccc12 — IC50 (cell growth or viability, MTT; 72 h): 50.1 µM
CC(=O)O[C@H]1CC[C@]2(C)[C@H]3CC=C4[C@@H]5CC(C)(C)CC[C@]5(C(=O)O)CC[C@@]4(C)[C@]3(C)CC[C@H]2C1(C)C — IC50 (cell growth or viability, SRB): 42.4 µM
CCCC(CCC)C(=O)NCCNC(=O)[C@@]1(C)[C@H](O)CC[C@@]2(C)[C@H]1CC[C@]1(C)[C@@H]2C(=O)C=C2[C@@H]3[C@@H](C)[C@H](C)CC[C@]3(C)CC[C@]21C — IC50 (cell growth or viability, MTT; 48 h): > 30 µM
Oc1cccc2[nH]c(/C(=N/OCc3ccccc3)c3cc4cccc(O)c4o3)nc12 — IC50 (cell growth or viability, ATP luminescence; 72 h): 32.8 µM
COc1ccc(/C=C/C2=[N+]3C(=C(COC(C)=O)c4c(C)cc(/C=C/c5ccc(OC)cc5)n4[B-]3(F)F)C(C)=C2)cc1 — IC50 (phototoxicity, resazurin; together with: 645 nm light, 9.00 J/cm2): 11 ± 3 µM
Cc1c(C)c(C)[c-](C)c1C.O=Cc1ccc(-c2[c-]cccc2)nc1.[Cl-].[Ir+3] — IC50 (SRB; 24 h, 72 h recovery): 5.9 ± 0.1 µM
Cc1[nH]c(=O)c(CNC(=O)c2ccc(C(F)(F)F)cc2)c2c1CCCC2 — IC50 (cell growth or viability, MTT; 72 h): > 100 µg/mL
C=C1C2C(OC(=O)c3ccccc3)C3C4N(C)C5C(O)C3(C1O)C(C2OC(C)=O)C41C(OC(C)=O)C(OC(=O)c2ccccc2)CC(C)(C=O)C51 (centres unmarked) — IC50 (cell growth or viability, MTT): 64.2 µM
CN1CCC2(CC1)C/C(=N\NC(=O)Nc1ccccc1)c1ccccc1O2 — IC50 (cell growth or viability, MTT; 48 h): 5.83 µM
C[C@]12CC/C(=N\OCCN3CCCCC3)C=C1CCC1C2CC[C@]2(C)/C(=C/c3ccccn3)CCC12 (some centres unmarked) — IC50 (cell growth or viability, MTT; 72 h): 21.3 µM
CN(C)c1ccc(/C=C2\SC(N3N=C(c4cccs4)CC3c3ccc(F)cc3)=NC2=O)cc1 (centres unmarked) — IC50 (cell growth or viability, MTT): 24.1 µM
Cc1ccc(C(C)C)cc1.O=C(N=P(c1ccccc1)(c1ccccc1)c1ccccc1)c1[c-]cccc1.[Cl-].[Ru+2] — IC50 (cell growth or viability, MTT; 24 h): 29.9 µM
CC(=O)O[C@@H]1CC[C@@]2(C)[C@@H](CC[C@]3(C)[C@@H]2C(=O)C=C2[C@@H]4[C@@H](C)[C@H](C)CC[C@]4(C)CC[C@]23C)[C@@]1(C)C(=O)NCCNC(=O)C1CC1 — IC50 (cell growth or viability, MTT; 48 h): 7.16 µM
COc1cc2ncnc(Nc3ccc(F)c(Cl)c3)c2cc1NC(=O)N/N=C/c1ccc[nH]1 — IC50 (cell growth or viability, MTT; 72 h): 8.41 µM
N#Cc1cccc(-c2ccc(=O)n(Cc3cccc(-c4ncc(OCC5CCN(CC(=O)NCCOCCOCCNc6ccc7c(c6)C(=O)N(C6CCC(=O)NC6=O)C7=O)CC5)cn4)c3)n2)c1 (centres unmarked) — IC50 (cell growth or viability, CCK-8; 72 h): 1.15 µM
Cl.[Cl][Ru-]1[S+]=C(N2CCCC2)N[N+]1=Cc1ccc(N(c2ccc(-c3ccsc3)cc2)c2ccc(-c3ccsc3)cc2)cc1.c1ccccc1 — IC50 (cytotoxicity, MTT; 24 h): 18.9 ± 5.8 µM
O=C1c2cccc3cccc(c23)C12NC(Cc1ccc(O)cc1)C([N+](=O)[O-])C2c1ccc(Cl)cc1 (centres unmarked) — IC50 (cell growth or viability, MTT; 48 h): 54.8 µM
Cc1cc(C)c([N+]#[C][Pd-]([Cl])([Cl])=[C](Nc2ccc(CN[C](Nc3c(C(C)C)cccc3C(C)C)=[Au][Cl])cc2)Nc2c(C)cc(C)cc2C)c(C)c1 — IC50 (cell growth or viability): > 100 µM
Cc1ccc(C2=NN(C3=NC(=O)/C(=C/c4ccccc4)S3)C(c3ccc(F)cc3)C2)cc1 (centres unmarked) — IC50 (cell growth or viability, MTT): 66.5 µM
CC(C)c1cccc(C(C)C)c1[N+]#[C][Pd-2]([Cl])([Cl])[C]#[N+]c1c(C(C)C)cccc1C(C)C — IC50 (cell growth or viability): > 100 µM
CC1=CC[C@]2(C(=O)O[C@H]3OC[C@@H](O)[C@@H](O)[C@@H]3OS(=O)(=O)O)CC[C@]3(C)C(CCC4[C@@]5(C)CC[C@H](O)C(C)(C)C5CC[C@]43C)C2[C@H]1C (some centres unmarked) — IC50 (cell growth or viability, MTT): 3.5 µM

A few entries again:
COc1ccc([C@@H]2CC(=O)c3c(O)cc(O[C@@H]4O[C@H](CO[C@@H]5O[C@@H](C)[C@H](O)[C@@H](O)[C@H]5O)[C@@H](O[C@H]5O[C@H](CO)[C@@H](O)[C@H](O)[C@H]5O)[C@H](O)[C@H]4O)cc3O2)cc1O — IC50 (cell growth or viability, trypan blue; 72 h): 88.8 µg/mL
C[C@]12CC/C(=N\OCCN3CCCCC3)C=C1CCC1C2CC[C@]2(C)/C(=C/c3ccccn3)CCC12 (some centres unmarked) — IC50 (cell growth or viability, MTT; 72 h): 21.3 µM
CC(=O)OC[C@H]1O[C@@H](N2C(=O)/C(=C/c3ccc4c(c3)OCCO4)SC2=S)[C@H](OC(C)=O)[C@@H](OC(C)=O)[C@@H]1OC(C)=O — IC50 (cell growth or viability, MTT; 48 h): 17.1 µM
COC(=O)[C@@H](NC(=O)[C@@H](NC(=O)OC(C)(C)C)C(C)C)C(C)C — IC50 (cell growth or viability, SRB): 1 µM
Cc1ccc(C2=NN(C3=NC(=O)/C(=C/c4ccccc4)S3)C(c3ccc(F)cc3)C2)cc1 (centres unmarked) — IC50 (cell growth or viability, MTT): 66.5 µM
COc1cc2ncnc(Nc3ccc(F)c(Cl)c3)c2cc1NC(=O)N/N=C/c1ccc[nH]1 — IC50 (cell growth or viability, MTT; 72 h): 8.41 µM
